Measurements collected from several papers.
Each numbered part is a random draw from the data of one study; scales do not carry over between parts.

Study 1 — method: universal PBM; form: double-stranded DNA, one strand shown; medium: in vitro; concentration: 600 nM; direction: higher = stronger binding; endpoint: E-score
Target: Sal-like protein 4, full length isoform A (SALL4, Homo sapiens, UniProt Q9UJQ4, residues 1-1053)
UniProt Q9UJQ4, sequence (whole entry, looked up): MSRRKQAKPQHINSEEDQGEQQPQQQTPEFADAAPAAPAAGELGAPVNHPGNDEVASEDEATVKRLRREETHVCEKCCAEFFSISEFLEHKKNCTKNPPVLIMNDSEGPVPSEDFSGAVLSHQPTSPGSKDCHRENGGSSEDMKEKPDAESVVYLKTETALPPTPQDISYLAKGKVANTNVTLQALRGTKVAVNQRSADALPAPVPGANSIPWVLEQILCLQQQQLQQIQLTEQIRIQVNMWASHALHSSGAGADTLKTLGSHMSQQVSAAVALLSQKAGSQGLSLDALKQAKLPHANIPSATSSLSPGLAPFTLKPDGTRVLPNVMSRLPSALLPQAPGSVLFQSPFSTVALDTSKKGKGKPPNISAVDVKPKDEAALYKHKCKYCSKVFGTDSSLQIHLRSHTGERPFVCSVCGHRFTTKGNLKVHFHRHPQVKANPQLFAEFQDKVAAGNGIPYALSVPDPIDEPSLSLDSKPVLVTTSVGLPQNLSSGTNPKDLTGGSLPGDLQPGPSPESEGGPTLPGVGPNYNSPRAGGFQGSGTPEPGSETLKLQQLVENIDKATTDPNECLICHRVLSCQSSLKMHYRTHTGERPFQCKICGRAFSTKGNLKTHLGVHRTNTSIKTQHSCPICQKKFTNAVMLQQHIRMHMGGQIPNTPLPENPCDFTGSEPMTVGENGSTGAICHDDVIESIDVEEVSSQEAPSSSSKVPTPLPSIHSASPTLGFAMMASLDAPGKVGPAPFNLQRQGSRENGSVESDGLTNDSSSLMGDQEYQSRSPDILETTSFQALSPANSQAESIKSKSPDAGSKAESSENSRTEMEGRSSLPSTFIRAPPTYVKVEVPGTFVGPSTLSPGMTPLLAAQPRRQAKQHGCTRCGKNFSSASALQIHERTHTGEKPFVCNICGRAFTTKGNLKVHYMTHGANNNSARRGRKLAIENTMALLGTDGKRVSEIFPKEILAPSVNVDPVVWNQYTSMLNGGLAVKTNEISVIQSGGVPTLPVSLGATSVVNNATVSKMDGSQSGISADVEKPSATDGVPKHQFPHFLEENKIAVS
Setting: 8-mer, flanks averaged, mean of replicates
CCACGTAC: -0.105
ACTCGCGA: 0.0194
AATGTAGG: 0.0166
GTCGCCAA: -0.169
AATAGGCG: 0.129
CTAAGAGC: -0.275

Study 2 — method: RNA Bind-n-Seq; form: RNA; medium: in vitro; concentration: 365 nM; baseline: no-protein control; direction: higher = stronger binding; endpoint: RBNS enrichment (R)
Target: RNA binding protein fox-1 homolog 2, RRM domain, GST-SBP tag (RBFOX2, Homo sapiens, UniProt O43251-10, residues 100-194)
Setting: natural RNA segment, single round, ends assumed
Constant ends, left off below: GGGAGUUCUACAGUCCGACGAUC … UGGAAUUCUCGGGUGCCAA
Target sequence (chain): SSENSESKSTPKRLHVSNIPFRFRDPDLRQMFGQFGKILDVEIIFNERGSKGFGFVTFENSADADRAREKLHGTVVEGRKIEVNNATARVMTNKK
UCGGCCUUCGUGUAUGGUUUCACCUUCCCAUGCUGCACUCUUUCCUGAGCCAUGUGGGAGUCGUGUGAAUGACCAAGGCAGAUGCUAGCAAGUGGUGCUUCCUUCUCAGC: 0.308
GCUCAAAUCUGUUGUGUUUCUGAGUCUAGGGUCUGUACACUUGUUUAUAAUAAAUGCAAUCGUUUGGGCUGCUGCCCCCUUUCUUCCUGGCCUCGGCUGCUGGAAUUGGA: 0.678
UAUAGCCAACACUCUGAUGCUGCUCUUUUUCUUGUAGGACCAACCGUCCCAGUUUGCCUGGGACUUUCUCAUUUUUACAGAGUCCCAAAUCCUAGGAAACUGGAGCAACU: 0.219
AUAAUAAAGUGUCUGCCGGCUCGCGGGCCAGGAUCCUCUCGGUGGGAUGGGCACCACAGACAGGAGGCCCCUCAGGCCCGUGCGGGCCACUGUCUGCUGCCGCCUGCCGG: 0.441
CCUGCUACAGAGGGGAAGAAAGUGUACCCUCCAAUGUGAUAAAUCUUCUGAUGCCCCCAGACUCUUGGAGCACAUCCUGGUGCCCCUCCUGCAGGAGCCUGUGGCAUAUU: 0.439
GUUCCCCACCCCUCACAGACUGCCUGAGCUCUUCUGUAAGCUGGGGUAGGGUGAUGGCAGUGCUCCGGGAACUGGGCCUGCAGCCUUCCUCUUCUGGGACUGCUGUGAGG: 0.236
AGGUUGGCCGCCUUGAGGAACUAGCCGUGCCCCGCCGGUGUGCACCGCCUCUGCCCCGUGAUGUGCUGGAAGGCUCCUGUCCUCUCCCCACCGCGUCUUGCCUUUGUGCU: 1.75
AGGAUUAAUUAUCAGAAGACAGCUCAGGCCAAGUUUUGAUCGUUCCAUACAGUACCUUGUUUAUCUGCUUCUUAAAGAAUCAGCCGAGACACCAUAAAAGAAAUAGGCUU: 0.277
CGUUUGGUUUUCUUUUCAGAACUUGGGAGCCCCCAGGGAGGGGCUAGUGUUGGUAGGUCCUAGACGUGGUUCCCUCCAGCCUCCCCAAAAUCAACCCUGGUGUUGAGAGA: 0.343
AGUUCUCACCUCCAUUUAGUCCCCCAUCAGAACAGAGGUCAGGAAUUUAGCUGGGGAGCCUAAAUUUAGUUCAGCUUACCUUUGAGAAUAGCAUCAAUUCAGACUCUCUU: 0.972

Study 3 — method: RNA Bind-n-Seq; form: RNA; medium: in vitro; concentration: not given; setting: RNA with constant flanks, ends assumed; baseline: input RNA pool; direction: higher = stronger binding; endpoint: bound/input enrichment
Target: RING finger protein unkempt homolog, zinc fingers 1-6, GST-SBP tag (UNK, Homo sapiens, UniProt Q9C0B0, residues 30-357)
UniProt Q9C0B0, sequence (30-357, looked up): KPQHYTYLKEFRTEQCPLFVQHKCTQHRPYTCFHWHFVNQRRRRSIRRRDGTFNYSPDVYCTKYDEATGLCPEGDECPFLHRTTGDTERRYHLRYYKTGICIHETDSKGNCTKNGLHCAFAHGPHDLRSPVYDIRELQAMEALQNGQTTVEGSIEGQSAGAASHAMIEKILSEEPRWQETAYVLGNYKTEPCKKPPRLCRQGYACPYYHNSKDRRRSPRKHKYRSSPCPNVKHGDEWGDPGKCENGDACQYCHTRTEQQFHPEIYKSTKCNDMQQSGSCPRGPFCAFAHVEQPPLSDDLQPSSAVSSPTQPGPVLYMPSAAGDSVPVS
Constant ends, left off below: GGGAGUUCUACAGUCCGACGAUC … CAACAGAGGAUUGAGCAUCA
GAGGAGUUAGAUACCUUAUUAAGCAAUUUUUGUGAACUCUCCACUCCUGGAGGUGCCGAGAACCGUUAUGGGAAAAUAAACAUCUUACUUCAAACUUAUAUCAGCCGAGGAGAAAUGGAC: 1.93 ratio
AGCAGGAAGAAUGUGCUUGGUCACAUGCAGCAGGGUGGGAGCCCAACCCCAUUUGACCGGAAUUUUGCCACUAAGAUGGGCGCCAAGGCUAUGAACUGGAUGUCUGGGAAAAUCAAAGAG: 0.24 ratio
UCUGUCUGACUCCUGGGUCUGUGCGCCAUGGCAUGAGUGUUUUCUAGUAGUAGACUGGAGCCGCCGACUGUUUCUAAGAACAGAUGAUCUGGUUCCUGAUGUGUAGAGACUCUUAUGUAC: 0.381 ratio
GAAAAGCCAUCUCCUAUUCAGGAGGAGAGCAUUCCCAUUGCUUUAUCUGGUAGGGAUAUCUCCGCCCGAGCAAAAAAUGGAACAGGCAAGAGCGGUGCCUACCUCAUUCCCUUACUUGAA: 0.138 ratio
GAUGAAAUGGGUUUGGGAAAGACACUUCAAACAAUUUCUCUUCUUGGAUACAUGAAACACUACCGAAAUAUUCCUGGUCCUCAUAUGGUUUUGGUUCCCAAGUCUACAUUGCACAACUGG: 0.173 ratio
CCUCCUCCAUCGAGGGAGAGGCCUGAAGGGACUGCCUACUGCAGCUCGUUGCCAAUCACACCGCUUUCUAUUUGUUAAGUAUAAAUUUAAAUUUAAAAUCACUUUUUUAACGAAUGGGGG: 0.167 ratio
CUCGAUUAUCUCAAGAGAGAGUGUGAAGCAAAGAGUGAAGUGAUGUUUUUUGCAGAAGCUACCCGUCACUUGGAAGAGAAGAAGAAAAAACGAAAAAACAGGAAAAGGAUGAUUUUAACA: 0.287 ratio

Mixed results
PhoQ, residues 284 288 289 292 302 303 SACGEM  fold induction (PhoP, residues 12 14 15 18 19 STWGI (Escherichia coli, UniProt P23836); Sort-seq, measured: YFP reporter; E. coli; PhoQ-PhoP variant library, added: 10 µM Mg2+; baseline: high Mg2+ state, higher = stronger signaling): 7.78
